Assay results collected from several papers.
Lines come from different studies, so protocols differ. Values joined by “and” are separate records of one study, mostly repeats; a detail may differ. ± gives the spread as reported. Converted amounts (≈) assume the structure as drawn.

COc1c(CCC[P+](c2ccccc2)(c2ccccc2)c2ccccc2)cc2c(c1OC)OCO2.[I-] — LC50 (BT-549; SRB): > -4 log M
CN1CCN(C2(CNC3CCN(c4cccc(-c5cc6cc(F)ccc6[nH]5)c4)CC3)CCC2)CC1 — CC50 (BT-549): 6.85 µM
COc1cc2c(cc1OC)[C@@]13CCN4CC5=CCO[C@H]6CC(=O)N2[C@H]1[C@H]6[C@H]5C[C@H]43 — reversal of trafficking deficit (primary rat hippocampal/cortical neuron-glia cultures; 1 µM, together with: 1 µM α-synuclein oligomers): -15.2%
COc1cnc(OC)n2nc(NS(=O)(=O)c3c(OCC(F)F)cccc3C(F)(F)F)nc12 — inhibition (HEK293T; cytotoxicity, CCK-8; 0.78 µM, 72 h): 0%
Cc1cc(Cl)c(Cl)cc1NC(=O)c1ccc(N2CCNCC2)c(C#N)c1 — EC50 (J774.A1; cytotoxicity): 1.9 ± 1.6 µM
Cn1cncc1C1=CN(c2ncnc3[nH]cnc23)CCS1 — CC50 (UACC-62; melanoma cell line): 138 µM
CCCCCCCCCCCCN1/C(=C\C=C\C2=[N+](CCCCCCCCCCCC)c3ccccc3C2(C)C)C(C)(C)c2ccccc21.[O-][Cl+3]([O-])([O-])[O-] — labelling efficiency (mouse erythrocytes; 1 h, 37 °C, 25 µM lipids): 100%
COc1c(C)c2c(c(O)c1C/C=C(\C)CCC(=O)O)C(=O)OC2 — IC50 (U2OS; cell proliferation; bone cancer): 0.724 µM
O=S(=O)(c1ccc(O)cc1)c1ccc(O)cc1 — G1 phase cells (HepG2 spheroids; Hoechst flow cytometry; 1 µM, 24 h): 71.5 ± 4%
CCN(CC)c1ccc(C=NNC(=O)CSc2nc3ccccc3c(=O)n2Cc2ccc(S(N)(=O)=O)cc2)c(O)c1 — CC50 (SK-MEL-2; NCI five-dose screen): > 100 µM
CC(C)C[C@H](NC(=O)[C@H](CCc1ccccc1)NC(=O)CN1CCOCC1)C(=O)N[C@@H](Cc1ccccc1)C(=O)N[C@@H](CC(C)C)C(=O)[C@@]1(C)CO1 — fold change (patient normal conditionally reprogrammed cells; RNA-seq, item: NLRP2 mRNA; human; concentration not given; reference: DMSO): -4850
Cc1cc(C(C)(C)c2ccc(O)c(C)c2)ccc1O — G2 phase cells (HepG2 spheroids; Hoechst flow cytometry; 1 µM, 24 h): 15.9 ± 4.31%
Cn1cc(Nc2nccc(-c3ccc4c(c3)CN(C3COC3)CC[C@H]4NC(=O)c3cn(C(C)(C)C)nn3)n2)cn1 — pathway activation z-score (mouse splenic B cells; item: Neurotrophin/TRK signalling; 30 mg/kg, IgD-activated in vivo; reference: vehicle, direction not given): 3.32
Cn1nccc1Nc1nccc(-c2cc3c(s2)C(C)(C)N(CCN2CCOCC2)C3=O)n1 — PI-positive cells (HCT116; IncuCyte; concentration not given, 44 (unit not given)): 32 count and 31.3 count and 20.6 count
Cc1ccc(-n2sc3ccccc3c2=O)cc1 — CD4 surface recovery (HIV-infected PBMCs; 1.0 µM, two donors): 3.4 ± 2.2%
Oc1cc(Cl)ccc1Oc1ccc(Cl)cc1Cl — point of departure (HepG2; extracellular flux, item: oxygen consumption rate; 6 h, representative mode): 1.29 µM
N.N.[Cl][Pt][Cl] — GI50 (SK-MEL-28; cell growth, SRB; dark, 1% O2 hypoxia): 1.88 µM
C[C@@H](O)[C@H]1C(=O)N2C(C(=O)O)=C(SCCN=CN)C[C@H]12 — MIC (Escherichia coli DH5α expressing KPC-25; bacterial growth): 0.125 µg/mL (≈ 0.418 µM)
CN1CCN(S(=O)(=O)c2cc([N+](=O)[O-])ccc2N(CCOS(C)(=O)=O)CCOS(C)(=O)=O)CC1 — IC50 (sample H BCP-ALL PDX cells; cell viability; ex vivo): 0.859 µM
O=C1CCP(=S)(c2ccccc2)CC1 — late apoptotic cells (PC-3; Annexin V-FITC/PI flow cytometry; IC50, 72 h): 95.5%
CC(c1ccccc1)(c1ccc(O)cc1)c1ccc(O)cc1 — S phase cells (HepG2 spheroids; Hoechst flow cytometry; 0.01 µM, 96 h): 8.31 ± 1.06%
O=C1N(Cc2ccccc2Cl)c2ccccc2C12NN=C(c1ccccc1)S2 (stereo not shown) — fold change (MDA-MB-468; gene expression array, item: HMGB1 mRNA; 10 µM, 12 h; reference: untreated, down): 1.51
COc1ccc2c(c1)[nH]c1c(C)nccc12 — DNA methylation (DU-145; bisulfite pyrosequencing, item: RASSF1A promoter CpG site 28; 10 µM, 16 h): 76%
Oc1ccc(C2(c3ccc(O)cc3)c3ccccc3-c3ccccc32)cc1 — G1 phase cells (HepG2 spheroids; Hoechst flow cytometry; 40 µM, 24 h): 75.9 ± 2.35%
C/C=C(/C)C(=O)O[C@H]1C(C)=C2[C@H]([C@@H]1OC(=O)CCCCCCC)[C@@](C)(OC(C)=O)C[C@H](OC(=O)CCC)[C@@]1(O)[C@H]2OC(=O)[C@@]1(C)O — log2 fold change (HEK293T; RNA-seq, item: PON2 mRNA; 10 µM, 6 h; reference: vehicle): -0.513
O=C1CCP(=[Se])(c2ccccc2)CC1 — selectivity index (PC-3; MTT; 72 h; reference: IC50 HaCaT over IC50 PC-3): 1
Cc1cccc(-c2cccc(C)n2)n1.Cc1cccc(-c2cccc(C)n2)n1.F[P-](F)(F)(F)(F)F.F[P-](F)(F)(F)(F)F.[Ru+2].c1ccc2cc(-c3nc4c5cccnc5c5ncccc5c4[nH]3)ccc2c1 — EC50 (SK-MEL-28; cell viability; normoxia, together with: green light 523 nm, 100 J/cm2): 29.9 ± 1.2 µM
Cc1ccc2cc(N3CCC4(O)C(=O)c5cc(C)c(C)cc5N=C34)ccc2n1 (stereo not shown) — maximal inhibition (COS-7; cytokinesis): ~100%
COc1ccc2c(c1)CC[C@@H]1[C@@H]2CC[C@]2(C)[C@@H](NCCCCCCN3C(=O)C=CC3=O)CC[C@@H]12 — effect on signal (N2a; fluorescence signal increase, inhibitor; 1 µM, together with: UTP 300 µM): decreased
Oc1cc(O)cc(-c2cc3ccc(O)cc3o2)c1 — cell survival (3T3; cell growth, MTT; 12.5 µg/mL, 48 h): 67.4 ± 0.72%
Cc1nn(-c2nc3ccc(Cl)c(Cl)c3[nH]2)c(O)c1C1OC(=O)c2ccccc21 (stereo not shown) — viability (RAW-ISG; CCK-8; 200 µM): 8.33% and 14.1% and 13.4% and 14.6%
C[C@]12CC[C@H](O)C[C@H]1CC[C@@H]1[C@@H]2CC[C@]2(C)[C@@H](c3ccc(=O)oc3)CC[C@]12O — mRNA level (MCF7; RT-qPCR, item: GREB1; 50 nM, 48 h, without estradiol, unit not given; reference: untreated): 0.206 and 0.173 and 0.174
COc1cc(CCC[P+](c2ccccc2)(c2ccccc2)c2ccccc2)c(OC)c2c1OCO2.[I-] — LC50 (Hs-578T; SRB): > -4 log M
COc1ccc([C@H]2c3[nH]c4ccc(Cl)cc4c3CCN2C(=O)Oc2ccc(Cl)cc2)cc1 — inhibition (CD19+ B cells with PBMC; cytokine secretion, item: s-IL-6; 0.1 µM, 72 h, BioMAP BT system): 72%
CC(C)=CCc1c(O)cc(O)cc1-c1cc2ccc(O)c(CC=C(C)C)c2o1 — cell survival (MCF7; cell growth, MTT; 100 µg/mL, 48 h): 35.87 ± 0.34%
CC(C)N1CCC(NC2CCN(c3cccc(-c4cc5cc(F)ccc5[nH]4)c3)CC2)CC1 — GI50 (BT-549): 1.77 µM
COc1ccc(N(CC2CCC2)S(=O)(=O)C2CC3OC2C(c2ccc(O)cc2)=C3c2ccc(O)cc2)cc1 (stereo not shown) — EC50 (MCF7 3xERE-luc, steroid-deprived; ERE luciferase reporter, agonist): 0.0316 µM
C[C@H]1[C@H](C)CC[C@]2(C(=O)O)CC[C@]3(C)C(=CC[C@@H]4[C@@]5(C)CC[C@H](O)C(C)(C)[C@@H]5CC[C@]43C)[C@H]12 — cell survival (3T3; cell growth, MTT; 3.6 µg/mL, 48 h): 82.2 ± 1.2%
Nc1ncnc2c1ncn2[C@@H]1O[C@@H]2COP(=O)(O)O[C@H]3[C@@H](O)[C@H](n4cnc5c(=O)[nH]cnc54)O[C@@H]3COP(=O)(O)O[C@H]2[C@H]1O — pathway fold enrichment (HFF-1; RNA sequencing, item: Reactome R-HSA-5627123; downregulated pathway; reference: Zika virus alone): 17
Nc1ncc(-c2nc(N3CCOCC3)nc(N3CCOCC3)n2)c(C(F)F)n1 — GI50 (BT-549; 72 h): 0.16 µM
